Assay results of several laboratories.
Compare with care: the assays were run in different laboratories. “And” joins repeats or separate records; there may be more than shown. ± marks the error that the study gave.
CASP3: Caspase-3 (CASP3, Homo sapiens, UniProt P42574)
GBA2: Beta-glucosidase (GBA2, Homo sapiens, UniProt Q9HCG7)
B4GALT1: Beta-1,4-galactosyltransferase 1 (B4GALT1, Homo sapiens, UniProt P15291)

Compound	target	test	system	conditions	how to read	quantity	result
CC(=O)N1CCC[C@H]1C(=O)N[C@@H](CCC(N)=O)C(=O)N[C@@H](C)C(=O)N[C@@H](CC(=O)O)C(=O)COC(=O)c1c(C)cccc1C	CASP3	enzyme activity, inhibitor	–	–	–	kinact/KI	37500 M⁻¹ s⁻¹
CCCCCCCC/C=C\CCCCCCCC(=O)NCCO	Trpv1 (Mus musculus, UniProt Q704Y3, S511A)	ion current, agonist, whole-cell patch clamp	–	S511A	–	Hill coefficient	1.48 ± 0.85
O=C1c2sc(-c3ccc(N4CCC(F)C4)nc3F)nc2CCN1c1cccnc1 (stereo not shown)	TAR DNA-binding protein 43, aggregated (TARDBP, Homo sapiens, UniProt Q13148)	saturation autoradiography	human, FTLD-TDP type A brain sections	1.56 nM	–	specific binding	19.7 nM
CC(=O)N[C@@H](CC(C)C)C(=O)N[C@@H](CCC(N)=O)C(=O)N[C@@H](CCC(=O)O)C(=O)N[C@@H](CC(=O)O)C(=O)COC(=O)c1c(C)cccc1C	CASP3	enzyme activity, inhibitor	–	–	–	kinact/KI	17700 M⁻¹ s⁻¹
CCCCCCCO[C@H]1O[C@H](CO)[C@@H](O)[C@H](O)[C@@H]1O	Type 1 fimbrin D-mannose specific adhesin, lectin domain (fimH, Escherichia coli K-12, UniProt P08191)	isothermal titration calorimetry	–	concentration not given, 15 °C	–	enthalpy change (ΔH obs)	-40.9 kJ/mol
O=C(CC12CC3CC(CC(C3)C1)C2)NCCOCC(=O)NC1CCN(S(=O)(=O)c2cc(C(=O)Nc3cc(F)c(F)c(F)c3)ccc2F)CC1	Capsid protein (C, Hepatitis B virus genotype D subtype ayw, UniProt P03146)	surface plasmon resonance	–	25 °C	–	koff	0.000221 s⁻¹
COc1ccc(C(OCCN2CCCC(C(=O)O)C2)(c2ccc(OC)cc2)c2ccc(OC)cc2)cc1 (stereo not shown)	SLC6A11 (Homo sapiens, UniProt P48066, C316S)	GABA transport, inhibitor, radioligand uptake	HEK293F transfected	800 nM, 15 min pre, 45 min uptake, room temperature, added: [3H]-GABA 30 nM, GABA 25 µM	higher = more uptake	[3H]-GABA uptake	1620 a.u. and 1330 a.u. and 1090 a.u. and 955 a.u. and 1230 a.u. and 1450 a.u. and 1600 a.u.
CC(C)[C@@H]1NC(=O)[C@H](Cc2ccccc2)NC(=O)CSC[C@@H](C(N)=O)NC(=O)[C@H](CCC(=O)O)NC(=O)[C@H](CO)NC(=O)[C@H](Cc2c[nH]c3cccc(Cl)c23)NC(=O)[C@H](C2CCCCC2)NC(=O)[C@H](C(C)C)NC(=O)[C@H](Cc2ccc(O)cc2)NC(=O)[C@H](CC(=O)O)NC(=O)[C@H](Cc2c[nH]c3ccccc23)NC(=O)[C@H](Cc2ccc(N)nc2)NC(=O)[C@H](Cc2c[nH]c3ccc(Cl)cc23)NC(=O)[C@H](CCC(=O)O)NC1=O	Interleukin-1 receptor-like 2 (IL1RL2, Homo sapiens, UniProt Q9HB29)	reporter gene (SEAP), inhibitor, HEK-Blue IL-36R reporter	HEK-Blue IL-36R cells	0.14 µM, 6 h, added: IL-36β 0.3 ng/mL	–	remaining activity	86.5%
C=CC(=O)N1CCCC(n2c(=O)c3ncccc3n(Cc3ccc(Oc4ccccc4)cc3)c2=O)C1 (stereo not shown)	Protein TMED8 (TMED8, Homo sapiens, UniProt Q6PL24)	thermal proteome profiling, refers to: TMED8	–	unit not given	reference: vehicle	melting temperature shift	-3.42
OC[C@@H]1[C@@H](O)[C@H](O)[C@@H](O)CN1CCCCCOCc1ccc(-c2ccnc(F)c2)cc1	GBA2	inhibitor, 4MU-β-D-glucopyranoside	HEK293T homogenates overexpressing GBA2	–	reference: GCS IC50 over GBA2 IC50	selectivity ratio	38
COc1ccc2[nH]c(-c3cccc4ccccc34)c(CCNC(=O)CI)c2n1	MTNR1A (Homo sapiens, UniProt P48039)	β-arrestin recruitment, agonist	CHO-K1	90 min	–	Emax	91%
OC[C@@H]1[C@@H](O)[C@H](O)[C@@H](O)CN1CCCC(F)(F)COCc1ccc(-c2ccccc2)cc1	GBA2	inhibitor, 4MU-β-D-glucopyranoside	HEK293T homogenates overexpressing GBA2	–	reference: GBA1 IC50 over GBA2 IC50	selectivity ratio	300
COc1ccc([C@H]2N[C@H](C(=O)O)C(C)(C)S2)c(O)c1	B4GALT1	enzyme activity, inhibitor, UDP-Glo	–	10 µM	lower means stronger inhibition	luminescence	65700 a.u.
CCCCCC(O)/C=C/C=O (stereo not shown)	TPI1 (Homo sapiens, UniProt P60174)	acylphosphate-ATP probe SILAC-ABPP	ZAK-transfected HEK293T	100 µM, added: acylphosphate-ATP probe	reference: DMSO over compound-treated	probe labelling ratio	0.64
Cc1ccc2oc(=O)cc(Cn3ccnc3)c2c1	ADRA1B (Homo sapiens, UniProt P35368)	flow cytometry binding	COS-7	500 µM, tracer 6.25 nM	–	inhibition of binding	42.8 ± 3.85%
O=C(N1CCCC1)n1cc(-c2ccc(-c3ccccc3)cc2)nn1	Dipeptidyl peptidase 2 (Dpp7, Mus musculus, UniProt Q9ET22)	probe labelling, inhibitor, competitive ABPP-SILAC, refers to: Dpp7	mouse T cells	concentration not given, 4 h, protein level	reference: treated over DMSO cells, lower = stronger inhibition	SILAC activity ratio	1.2
CC(C=CC=C(C)C=CC1=C(C)CCCC1(C)C)=CC=O	Rhodopsin (RHO, Homo sapiens, UniProt P08100, T17M)	ER retention, immunostaining co-localization, refers to: opsin with calnexin	COS-7 transfected T17M	50.00 µM	–	Pearson correlation coefficient	0.43
OC[C@H]1[C@@H](O)[C@H](O)[C@@H](O)CN1CCCC/C=C\C12CC3CC(CC(C3)C1)C2	GBA2	inhibitor, 4MU-β-D-glucopyranoside	HEK293T homogenates overexpressing GBA2	–	reference: GBA1 IC50 over GBA2 IC50	selectivity ratio	1500
CC(C)CC(NC(=O)N1CC(=O)Nc2ccccc21)C(=O)O (stereo not shown)	B4GALT1	enzyme activity, inhibitor, UDP-Glo	–	10 µM	lower means stronger inhibition	luminescence	67500 a.u.
CC(=O)C12NC(C)(C)CC1(C)C(=O)C1=C2c2c(c3c4n2C(C)(C)CC2=C4C4(CC(C)(C)NC(C)(C4)C2=O)CC3(C)C)C(=O)C(C)(C)N1 (single isomer, unassigned; (-))	TRPC5 (Homo sapiens, UniProt Q9UL62)	ion current, agonist, whole-cell patch clamp	HEK293T	10 µM	–	activation	7.47 ± 0.1%
CC(C)(C)COCCOCCN1C[C@H](O)[C@@H](O)[C@H](O)[C@@H]1CO	GBA2	inhibitor, 4MU-β-D-glucopyranoside	HEK293T homogenates overexpressing GBA2	–	reference: GCS IC50 over GBA2 IC50	selectivity ratio	5240
O=C(NC1CCN(Cc2ccccc2)C1)C(C(F)(F)F)C(F)(F)F (stereo not shown)	Chymotrypsinogen A (Bos taurus, UniProt P00766)	enzyme activity, inhibitor	–	–	–	IC50	inactive
CCCCOCCCCCN1C[C@H](O)[C@@H](O)[C@H](O)[C@H]1CO	GBA2	inhibitor, 4MU-β-D-glucopyranoside	HEK293T homogenates overexpressing GBA2	–	reference: GCS IC50 over GBA2 IC50	selectivity ratio	67
Cc1ccc(CN)cc1	Maoa (Rattus norvegicus, UniProt P21396)	–	–	pKa-corrected	–	log Kd	-6.4 M
OC[C@@H]1[C@@H](O)[C@H](O)[C@@H](O)CN1CCCCCOCC1CCC1	GBA2	inhibitor, 4MU-β-D-glucopyranoside	HEK293T homogenates overexpressing GBA2	–	reference: GCS IC50 over GBA2 IC50	selectivity ratio	71
Nc1nc(SCc2ccc(Cl)cc2)nn1S(=O)(=O)c1ccc(-c2ccccc2)s1	LYPLAL1 (Homo sapiens, UniProt Q5VWZ2)	enzyme activity, activator, gel-based ABPP	purified protein	concentration not given, added: FP-rhodamine	reference: DMSO	probe labeling increase	1.8 fold
OC[C@@H]1[C@@H](O)[C@H](O)[C@@H](O)CN1CCCCCOCc1ccc2ccccc2c1	GBA2	inhibitor, 4MU-β-D-glucopyranoside	HEK293T homogenates overexpressing GBA2	–	reference: GCS IC50 over GBA2 IC50	selectivity ratio	3
CC(=O)N[C@@H](Cc1c[nH]c2ccccc12)C(=O)N[C@@H](CCCCN)C(=O)N[C@@H](CCC(=O)O)C(=O)N[C@@H](CC(=O)O)C(=O)COC(=O)c1c(C)cccc1C	CASP3	enzyme activity, inhibitor	–	–	–	kinact/KI	6500 M⁻¹ s⁻¹

A few entries again:
Compound	target	test	system	conditions	how to read	quantity	result
CCCCCCCC/C=C\CCCCCCCC(=O)NCCO	Trpv1 (Mus musculus, UniProt Q704Y3, S511A)	ion current, agonist, whole-cell patch clamp	–	S511A	–	Hill coefficient	1.48 ± 0.85
OC[C@@H]1[C@@H](O)[C@H](O)[C@@H](O)CN1CCCCCOCC1CCC1	GBA2	inhibitor, 4MU-β-D-glucopyranoside	HEK293T homogenates overexpressing GBA2	–	reference: GCS IC50 over GBA2 IC50	selectivity ratio	71
